Published values collected from several papers.
Protocols differ between the studies behind these lines. ± gives the spread as reported.
CDK9 with cyclin T1: Cyclin-dependent kinase 9, with cyclin T1 (CDK9, Homo sapiens, UniProt P50750)
Sequence of UniProt P50750 (whole entry, looked up): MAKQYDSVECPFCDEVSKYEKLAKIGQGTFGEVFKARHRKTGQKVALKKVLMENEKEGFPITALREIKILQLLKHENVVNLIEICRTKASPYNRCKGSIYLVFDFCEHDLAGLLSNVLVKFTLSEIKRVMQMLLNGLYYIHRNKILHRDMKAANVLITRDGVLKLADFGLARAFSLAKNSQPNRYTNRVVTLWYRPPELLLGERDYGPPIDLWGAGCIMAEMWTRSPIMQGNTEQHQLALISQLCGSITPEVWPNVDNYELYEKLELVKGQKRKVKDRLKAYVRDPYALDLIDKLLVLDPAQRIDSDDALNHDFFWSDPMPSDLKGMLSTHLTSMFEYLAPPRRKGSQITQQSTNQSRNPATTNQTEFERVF
CDK9: Cyclin-dependent kinase 9 (CDK9, Homo sapiens, UniProt P50750)

SMILES = C[C@@]1(O)CCC[C@H]1n1c(=O)c(C(F)F)cc2cnc(NC3CCN(S(C)(=O)=O)CC3)nc21; target = CDK9 with cyclin T1; test = kinase activity, inhibitor, fluorescence; measurement = Ki; value = 27 nM
SMILES = CC(C)(C)c1cnc(CSc2cnc(NC(=O)C3CCN(C(=O)CCOCCCN4Cc5cc6c(cc5C4)C(=O)N(C4CCC(=O)NC4=O)C6=O)CC3)s2)o1 (centres unmarked); target = CDK9; test = degrader, Western blot; test system = TC-71; measurement = DC50; value = 7.5 ± 2.9 nM
SMILES = COCc1cc(C(=O)Nc2cc([C@H]3CC[C@@H](OC(=O)NC(C)C)C3)[nH]n2)n(C)n1; target = CDK9 with cyclin T1; test = kinase activity, inhibitor, fluorescence; measurement = Ki; value = 231 nM
SMILES = CC[C@H](CO)Nc1nc(NCc2ccc(-c3ccccn3)cc2)c2ncn(C(C)C)c2n1; target = Cyclin-dependent kinase 9, with cyclin T2 (CDK9, Homo sapiens, UniProt P50750); test = affinity chromatography competition; test system = SH-SY5Y cell extract; measurement = Kd; value = 294 nM
SMILES = CC[C@@H]1[C@H](F)C(=O)N[C@@H]1COc1nccc2cc(C(N)=O)c(OC)cc12; target = CDK9; test = ATP-site probe binding, ActivX profiling; test system = THP-1 cell lysate; setting = Lys2 site; measurement = IC50; value = > 5000 nM
SMILES = CC(C)(C)c1cnc(CSc2cnc(NC(=O)C3CCN(C(=O)CCCCCCCN4Cc5cc6c(cc5C4)C(=O)N(C4CCC(=O)NC4=O)C6=O)CC3)s2)o1 (centres unmarked); target = CDK9; test = degrader, Western blot; test system = U-87 MG glioblastoma; setting = 6 h; measurement = DC50; value = < 10 nM
SMILES = CN1CCC(c2c(O)cc(O)c3c(=O)cc(-c4ccccc4)oc23)C(O)C1 (centres unmarked); target = CDK9 with cyclin T1; test = kinase activity, inhibitor; setting = together with: Cyclin T1 complex, GST-CTD substrate; measurement = IC50; value = 9 nM
SMILES = CN1CCN(c2ccc(Nc3ncc4cc(C#N)c(=O)n(C5CCCC5)c4n3)cc2)CC1; target = CDK9 with cyclin T1; measurement = IC50; value = 191 nM

A few entries again:
SMILES = CC[C@H](CO)Nc1nc(NCc2ccc(-c3ccccn3)cc2)c2ncn(C(C)C)c2n1; target = Cyclin-dependent kinase 9, with cyclin T2 (CDK9, Homo sapiens, UniProt P50750); test = affinity chromatography competition; test system = SH-SY5Y cell extract; measurement = Kd; value = 294 nM
